{"data": "Measurements pooled from the literature", "note": "Every numbered part comes from another study and shows a few of its results, in no order."}
{"data": "Block 1", "target": "PABPC1L2, full length, GST fusion (mouse, UniProt A0ABA7IW68)", "method": "RNAcompete", "form": "RNA", "matrix": "in vitro", "concentration": "20 nM", "notes": "7-mer, probes averaged, single round", "relative to": "mean of 7-mers", "direction": "higher = stronger binding", "Residues (chain)": "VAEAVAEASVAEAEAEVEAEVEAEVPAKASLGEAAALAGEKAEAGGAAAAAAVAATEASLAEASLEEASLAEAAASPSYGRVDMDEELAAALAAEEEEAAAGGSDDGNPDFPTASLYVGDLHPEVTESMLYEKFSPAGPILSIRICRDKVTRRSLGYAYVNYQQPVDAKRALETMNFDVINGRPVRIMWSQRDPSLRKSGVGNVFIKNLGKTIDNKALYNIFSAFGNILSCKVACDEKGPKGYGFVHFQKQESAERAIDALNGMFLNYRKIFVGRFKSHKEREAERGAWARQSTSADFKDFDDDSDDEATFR"}
{"Strand": "GUAUCCU", "7-mer Z-score": -0.356}
{"Strand": "CUAAAUC", "7-mer Z-score": 0.066}
{"Strand": "UCACUAA", "7-mer Z-score": 0.0207}
{"Strand": "ACAACAU", "7-mer Z-score": 0.294}
{"Strand": "CGCCGAU", "7-mer Z-score": -0.441}
{"Strand": "CCUAAUU", "7-mer Z-score": -0.345}
{"Strand": "UCGUCUG", "7-mer Z-score": -0.45}
{"data": "Block 2", "target": "Interferon regulatory factor 5, full length, phosphomimetic (IRF5, Homo sapiens, UniProt Q13568-2, residues 1-514, K96S/S451D/S453D/S456D/S462D)", "method": "protein-binding microarray", "form": "double-stranded DNA, one strand shown", "matrix": "in vitro", "concentration": "250 nM", "notes": "60-bp whole probe", "added": "salmon DNA 0.4 mg/ml", "relative to": "random background probes", "direction": "higher = stronger binding", "all sequences stand within": "GCCTAGCAC … GTCTTGATTCGCTTGACGCTGCTG"}
{"Strand": "TTTGGAGTCATTCTCAACCCGTGCTAG", "log fluorescence": "-0.126 z-score"}
{"Strand": "GACGGTATCGGGTATAGGGACGTGCTA", "log fluorescence": "2.71 z-score"}
{"Strand": "GACGATATCAGGATCGAGACGTGCTAG", "log fluorescence": "0.593 z-score"}
{"Strand": "GACGGCATCGGTATCGGGACGTGCTAG", "log fluorescence": "0.792 z-score"}
{"Strand": "CTTTTTTTTTTTTTCTGATCGTGCTAG", "log fluorescence": "1.26 z-score"}
{"Strand": "CTACGCCTGCAGGTGAGCCGGTGCTAG", "log fluorescence": "-0.613 z-score"}
{"data": "Block 3", "target": "Histone acetyltransferase KAT6A, winged helix 2, GST fusion (KAT6A, Homo sapiens, UniProt Q92794, residues 85-181)", "method": "protein binding microarray", "form": "double-stranded DNA, one strand shown", "matrix": "in vitro", "concentration": "not given", "notes": "8-mer, flanks averaged, mean of 2 arrays, mostly near background", "relative to": "not given", "direction": "higher = stronger binding", "Construct (chain)": "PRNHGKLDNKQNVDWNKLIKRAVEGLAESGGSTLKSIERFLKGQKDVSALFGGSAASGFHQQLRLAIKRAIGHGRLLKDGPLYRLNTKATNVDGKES"}
{"Strand": "ACCTTAGG", "E-score": -0.177}
{"Strand": "TACTCATA", "E-score": -0.253}
{"Strand": "ATGTAAAG", "E-score": -0.0548}
{"Strand": "GACTTTAC", "E-score": -0.053}
{"Strand": "ACCTTGTC", "E-score": -0.0185}
{"Strand": "CAAGTGTG", "E-score": 0.0268}
{"Strand": "CAGCCTAC", "E-score": 0.0295}
{"Strand": "CAAGTGTA", "E-score": -0.0857}
{"data": "Further values, each from its own experiment"}
{"Substance": "PhoQ, residues 284 288 289 292 302 303 SSTLSG", "target": "PhoP, residues 12 14 15 18 19 IQFRS (Escherichia coli, UniProt P23836)", "test": "Sort-seq, item: YFP reporter", "test system": "E. coli", "setting": "PhoQ-PhoP variant library, added: 10 µM Mg2+", "how to read": "relative to: high Mg2+ state, higher = stronger signaling", "quantity": "fold induction", "result": 19.6}
{"note": "Excerpt of the above (block 3):"}
{"Strand": "CAGCCTAC", "E-score": 0.0295}
{"Strand": "TACTCATA", "E-score": -0.253}
{"Strand": "ACCTTGTC", "E-score": -0.0185}
